Measurements of several laboratories.
Each line is one published result; not all experiments were run side by side. “And” joins repeats or separate records; there may be more than shown. ± gives the spread as reported. Converted amounts (≈) assume the structure as drawn.

| Structure (SMILES) | tested on | test | test system | setting | scale | endpoint | value |
| --- | --- | --- | --- | --- | --- | --- | --- |
| [2H]C([2H])(N)C([2H])([2H])NC(=O)c1cc(C2CC2)nc2c1cnn2C(C)C | Enterovirus D68 | viral replication | RD, US/MO/14-18947 | 100 nM |  | plaque reduction | 0% |
| Cc1ccc(C(C)C)c(OCc2ccc(C(=O)N/N=C/c3cccc(O)c3O)cc2)c1 | Mus musculus | gene silencing, high-content imaging | LDR reporter GFP cells | 30 h, retest run 1 |  | Emax | 39% |
| CC1(C)[C@H](NC(=O)/C(=N\OCCN)c2nsc(N)n2)C(=O)N1OS(=O)(=O)O | Proteus vulgaris | agar dilution | ATCC 29905, susceptible |  |  | MIC | 0.25 µg/mL (≈ 0.59 µM) |
| O=S(=O)(c1ccc(-c2ccc3ncnc(Nc4ccccc4)c3c2)cc1)N1CCOCC1 | Leishmania major | parasite growth, resazurin |  | promastigote |  | EC50 | > 4 µM |
| CN(C)CCNC(=O)c1cccn2c(=O)c3cc4ccccc4cc3nc12 | Trypanosoma brucei | RNA-seq | Lister 427 bloodstream form | 2 × EC50, 4 h |  | unchanged G4-containing genes | 712 genes |
| O=C(c1cccc(-c2ccc3ncnc(Nc4ccc(OCc5cccc(F)c5)c(Cl)c4)c3c2)c1)N1CCOCC1 | Leishmania major | parasite growth, resazurin |  | promastigote |  | EC50 | 3 µM |
| CC(C)(O/N=C(\C(=O)N[C@@H]1C(=O)N(OS(=O)(=O)O)C1(C)C)c1nsc(N)n1)C(=O)O | Proteus vulgaris | agar dilution | ATCC 29905, susceptible |  |  | MIC | 8 µg/mL (≈ 17.2 µM) |
| COc1ccc2c(C)nc(Nc3nc(O)cc(-c4ccccc4)n3)nc2c1 | Mus musculus | gene silencing, high-content imaging | LDR reporter GFP cells | 30 h, retest run 2 |  | Emax | 100% |
| CCCCCCCCCC(=O)N[C@@H](Cc1c[nH]c2ccccc12)C(=O)N[C@H](CC(N)=O)C(=O)N[C@@H](CC(=O)O)C(=O)N[C@@H]1C(=O)NCC(=O)N[C@@H](CCCNC(=O)OC2/C=C/CCCCC2)C(=O)N[C@@H](CC(=O)O)C(=O)N[C@H](C)C(=O)N[C@@H](CC(=O)O)C(=O)NCC(=O)N[C@H](CO)C(=O)N[C@@H]([C@H](C)CC(=O)O)C(=O)N[C@@H](CC(=O)c2ccccc2N)C(=O)O[C@@H]1C (stereo partly shown) | Staphylococcus aureus | planktonic bacterial growth, isothermal microcalorimetry | MRSA | 2.0 µg/mL, 24 h, 37 °C |  | peak heat flow | 0 µW |
| CC(C)(C)NCC(SS(=O)(=O)O)c1ccccc1 (stereo not shown) | Schistosoma mansoni |  | mice | 100 mg/kg, perfusion day 56 |  | female worms recovered | 0 worms per mouse |
| CCN(CC)CCCNC(=O)CSc1c2c(nc3cc(Cl)ccc13)CCCC2 | Mus musculus | gene silencing, high-content imaging | LDR reporter GFP cells | 30 h, retest, mean of two runs |  | Emax | 86% |
| FC(F)(F)c1cccc(CNc2nc(NC3CCN(Cc4ccccc4)CC3)c3nc[nH]c3n2)c1 | Cryptococcus neoformans | RNA-seq, item: ARG1 (CNAG_06500) | wild type | 48 µg/mL, 3 h | relative to: untreated wild type | log2 fold change | 1.25 |
| CC(=O)O[C@@H]1[C@@H](OC(C)=O)[C@H](Sc2sc(C(=O)c3ccc(C)cc3)c(N)c2-c2nc3ccccc3s2)OC[C@H]1OC(C)=O | human adenovirus type 7 | plaque reduction |  | non-toxic concentration |  | viral titre reduction | 20% |
| CO[C@H]1O[C@H](COC(c2ccccc2)(c2ccccc2)c2ccccc2)[C@@H](OS(=O)(=O)c2ccccc2)[C@H](OS(=O)(=O)c2ccccc2)[C@H]1OS(=O)(=O)c1ccccc1 | Bacillus cereus | microbial killing, broth dilution |  |  |  | MBC | 8 µg/mL (≈ 9.33 µM) |
| C=C(NC(=O)c1csc(-c2nc3c(cc2O)-c2nc(cs2)C(=O)NC(C(C)O)C(=O)NC(=C(C)OC)c2nc(cs2)C(=O)NC2c4nc(cs4)C(=O)NC(COC(=O)c4c5c6c(cccc6n4O)COC(=O)C(OC4CC(C)(O)C(N(C)C)C(C)O4)C2OC5)c2nc-3cs2)n1)C(N)=O (stereo not shown) | Staphylococcus epidermidis |  | methicillin-resistant, 10 isolates | serum 0% |  | MIC50 | 0.0156 µg/mL (≈ 0.0109 µM) |
| CC1(C)C(NC(=O)C(=NOC2(C(=O)O)CCC2)c2csc(N)n2)C(=O)N1OS(=O)(=O)O (stereo not shown) | Shigella flexneri | agar dilution | ATCC 12022, susceptible |  |  | MIC | 1 µg/mL (≈ 2.09 µM) |
| CC[n+]1cccc2cc(/C=N/NC(=O)c3cccc(C(=O)N/N=C/c4ccc5c(ccc[n+]5CC)c4)n3)ccc21 | MYC parallel G4 DNA | FRET melting |  | 1 µM, DNA 0.2 µM, with: duplex DNA competitor 10 µM |  | ΔTm | 8.7 ± 0.2 °C |
| CC(=O)O[C@@H]1[C@@H](OC(C)=O)[C@H](Sc2sc(C(=O)c3ccc(Br)cc3)c(N)c2-c2nc3ccccc3s2)OC[C@@H]1OC(C)=O | human adenovirus type 7 | plaque reduction |  | non-toxic concentration |  | viral titre reduction | 30% |
| C#CCNC(=O)C(C)(C)O/N=C(\C(=O)N[C@@H]1C(=O)N(S(=O)(=O)O)[C@H]1C)c1csc(N)n1 | Shigella flexneri | agar dilution | ATCC 12022 susceptible |  |  | MIC | 1 µg/mL (≈ 2.12 µM) |
| OB(O)c1ccc(C(F)(F)F)s1 | Streptococcus pyogenes |  |  | 100 µM, 10 h | relative to: untreated | growth | 80.1% and 86% and 99.3% and 77% and 84.5% |

| Structure (SMILES) | tested on | test | test system | setting | scale | endpoint | value |
| --- | --- | --- | --- | --- | --- | --- | --- |
| N=C(S)N/N=C/c1ncc(C(F)(F)F)cc1Cl | Mus musculus | gene silencing, high-content imaging | LDR reporter GFP cells | 30 h, retest run 2 |  | Emax | 92% |
| COc1ccc(Nc2ncnc3ccc(-c4ccc(S(=O)(=O)N5CCOCC5)cc4)cc23)cc1Cl | Leishmania major | parasite growth, resazurin |  | promastigote |  | EC50 | 0.83 µM |
| C[C@@H]1C(=O)O[C@@H](C)/C=C/C=C\[C@@H](C)[C@@H]2C=C[C@@H]3C[C@@]4(C)O[C@H]4[C@@H](C)[C@H]3[C@@H]2C(=O)C(Cl)(Cl)C1=O | Staphylococcus aureus |  | MRSA clinical isolate | resistant: OXA,DOX,TET |  | MIC | 0.2 µg/mL (≈ 0.404 µM) |
| CN(Cc1ccc(C2(C(F)(F)F)CCC2)cc1)Cc1cccc2ccccc12 | Trichophyton mentagrophytes | microbial growth, disc diffusion | ATCC18748 | 0.001 µg/mL, 72 h |  | inhibition zone | 0 mm |
| COC1CN([C@H]2CC[C@H]([C@@]3(C)Oc4c(Cl)cc(C(=O)NCc5c(SC)cc(C)[nH]c5=O)c(C)c4O3)CC2)C1 |  | RNA-seq, item: CERS4 | human, whole blood | dose not given, 24 h | relative to: pretreatment baseline | log2 fold change | 3.05 |
| O=C(c1cccc(-c2ccc3ncnc(Nc4ccc(OCc5cccc(F)c5)c(Cl)c4)c3c2)c1)N1CCCCC1 | Leishmania major | parasite growth, resazurin |  | promastigote |  | EC50 | > 3 µM |
| C(=N\Nc1nc(-c2ccccn2)nc2ccccc12)/c1ccccc1 | Mus musculus | gene silencing, high-content imaging | LDR reporter GFP cells | retest run 1 |  | AC50 | 10 µM |
| C[n+]1cc(/C=N/NC(=O)N/N=C/c2cc3ccccc3[n+](C)c2)cc2ccccc21 | MYC parallel G4 DNA | FRET melting |  | 1 µM, DNA 0.2 µM |  | ΔTm | 3.6 ± 1 °C |
| COCC/N=C(\S)N/N=C(\C)c1ccccc1O | Mus musculus | gene silencing, high-content imaging | LDR reporter GFP cells | retest run 1 |  | AC50 | 10 µM |
| CC1(C)C(NC(=O)C(=NOCC(=O)N2CC3CCCC3C2C(=O)O)c2csc(N)n2)C(=O)N1OS(=O)(=O)O (stereo not shown) | Proteus vulgaris | agar dilution | ATCC 29905, susceptible |  |  | MIC | ≤ 0.03 µg/mL |
| Fc1cccc(COc2ccc(Nc3ncnc4ccc(-c5ccc(N6CCCCC6)cc5)cc34)cc2Cl)c1 | Leishmania major | parasite growth, resazurin |  | promastigote |  | EC50 | > 15 µM |
| CC(C)n1ncc2c(C(=O)NCC3CNC3)cc(C3CC3)nc21 | Enterovirus D68 | viral replication | RD, US/MO/14-18947 | 1000 nM |  | plaque reduction | 74.5% and 77.4% |
| COc1cccc(/C=N/Nc2nc(Nc3ccccc3)nc(-n3nc(C)cc3C)n2)c1O | Mus musculus | gene silencing, high-content imaging | LDR reporter GFP cells | 30 h, confirmation, mean of two runs |  | Emax | 104% |
| O=S(=O)(c1ccc(-c2ccc3ncnc(Nc4ccc(OCc5cccc(F)c5)c(Cl)c4)c3c2)cc1)N1CCOCC1 | Leishmania major | parasite growth, resazurin |  | promastigote |  | EC50 | 1.6 µM |
| COc1ccc(S(=O)(=O)N(C)c2cc(OC)cc(C(=O)O)c2)cc1 | Leishmania infantum | intracellular amastigote growth | U-937 macrophages and HeLa |  | relative to: IC50 HeLa over IC50 amastigotes | selectivity index | > 2.7 |
| CC(C)n1ncc2c(C(=O)NC[C@@H](C)N)cc(C3CC3)nc21 | Enterovirus D68 | viral replication | RD, US/MO/14-18947 | 1000 nM |  | plaque reduction | 98% and 99.8% |
| O=S(=O)(c1ccc(-c2ccc3ncnc(Nc4ccc(OCc5cccc(F)c5)c(Cl)c4)c3c2)cc1)N1CCCCC1 | Leishmania major | parasite growth, resazurin |  | promastigote |  | EC50 | > 15 µM |
| C=CCO/N=C(\C(=O)N[C@@H]1C(=O)N(OS(=O)(=O)O)C1(C)C)c1nsc(N)n1 | Shigella flexneri | agar dilution | ATCC 12022, susceptible |  |  | MIC | 1 µg/mL (≈ 2.38 µM) |
| CN1CCN(S(=O)(=O)c2ccc(-c3ccc4ncnc(Nc5ccc(F)cc5)c4c3)cc2)CC1 | Leishmania major | parasite growth, resazurin |  | promastigote |  | EC50 | 12 µM |
| O=C(NN1C(=O)c2ccccc2NC1c1ccc([N+](=O)[O-])o1)c1ccc([N+](=O)[O-])cc1 (stereo not shown) | Mus musculus | gene silencing, high-content imaging | LDR reporter GFP cells | 30 h, retest run 2 |  | Emax | 119% |
